Results from different studies.
Lines come from different studies, so protocols differ. ± marks the error that the study gave.

CCCc1ccc(-c2c[nH]c(N)n2)cc1  IC50 (Mycolicibacterium smegmatis; biofilm formation, crystal violet): 17.3 µM
CCOC(=O)c1nc2ccccc2c(=O)n1Cc1cn(-c2cccc(OC)c2)nn1  IC50 (Candida tropicalis; microbial growth, broth dilution; ATCC750; 24 h): 113 µg/mL
CC(C)=CCC/C(C)=C/CNCCNC1C2CC3CC(C2)CC1C3 (stereo not drawn)  IC50 (Mycobacterium tuberculosis; growth; Erdman): 1 µM
Cc1cc(C)cc(Nc2nc(-c3cc(C(=O)Nc4ccccc4)no3)cs2)c1  IC50 (Mycobacteroides abscessus; Bamboo; 72 h): > 100 µM
CCCCCOc1ccc(-c2nc(N)[nH]c2C(F)(F)F)cc1  IC50 (Mycolicibacterium smegmatis; biofilm): < 10 µM
O=c1c(O)c(-c2cc(O)c(O)c(O)c2)oc2cc(O)cc(O)c12  IC50 (human alphaherpesvirus 1; viral replication; Vero, F; 24 h): 2.2 ± 0.3 µM
Cc1ccc(Nc2nc(-c3cc(C(=O)Nc4ccccc4C)no3)cs2)cc1  IC50 (Mycobacteroides abscessus; Bamboo; 72 h): > 100 µM
Tin mesoporphyrin  IC50 (Leishmania tarentolae; resazurin viability; promastigotes): 64.1 ± 21.3 µM
CCOCCOc1ccc(-c2c[nH]c(N)n2)cc1  IC50 (Mycolicibacterium smegmatis; biofilm formation, crystal violet): > 50 µM
COc1ccccc1OCCNCC(O)COc1cccc2[nH]c3ccccc3c12 (stereo not drawn)  IC50 (Lytechinus pictus; caffeine-induced Ca2+ release, inhibitor, Fluo-3 fluorimetry; egg homogenate; 2 min preincubation, with: caffeine 10 mM): 51 µM
Cc1ccc(C(=O)N(C(=O)c2ccc(C)cc2)C(=S)N2N=C(c3ccc(F)cc3)CC2c2cccc(F)c2)cc1 (stereo not drawn)  IC50 (Artemia; cytotoxicity; 24 h): 115 ± 9.7 µM
C/C=C1\NC(=O)[C@H]2CSSCC/C=C/[C@H](CC(=O)N[C@H](C(C)C)C(=O)N2)OC(=O)[C@H](C(C)C)NC1=O  IC50 (Schistosoma mansoni; worm pairing and egg production; adult worms): ~10 µM
CCOC(=O)c1nc2ccccc2c(=O)n1Cc1cn(-c2ccccc2)nn1  IC50 (Candida tropicalis; microbial growth, broth dilution; ATCC750; 24 h): 74.7 µg/mL
N=C(N)c1ccc(OCCCCCOc2ccc(C(=N)N)cc2)cc1  IC50 (Leishmania tarentolae; viability, resazurin; promastigotes, YEM/PBS; 48 h, 26 °C, with: 6 µM hemin): 0.81 ± 0.17 µM
Cc1ccc(C(=O)N(C(=O)c2ccc(C)cc2)C(=S)N2N=C(c3ccccc3)CC2c2ccc(C)cc2)cc1 (stereo not drawn)  IC50 (Artemia; cytotoxicity; 24 h): 124 ± 6.5 µM
CCCOc1ccc(-c2c[nH]c(N)n2)cc1  IC50 (Mycolicibacterium smegmatis; biofilm formation, crystal violet): 20.9 µM
CCOC(=O)c1nc2ccccc2c(=O)n1Cc1cn(-c2ccccc2F)nn1  IC50 (Candida tropicalis; microbial growth, broth dilution; ATCC750; 24 h): 87.1 µg/mL
Cc1ccc(Nc2nc(-c3cc(C(=O)Nc4cc(C)ccn4)no3)cs2)cc1  IC50 (Mycobacteroides abscessus; Bamboo; 72 h): > 100 µM
Cc1ccc(C(=O)N(C(=O)c2ccc(C)cc2)C(=S)N2N=C(c3ccc(F)cc3)CC2c2ccc(F)cc2)cc1 (stereo not drawn)  IC50 (Artemia; cytotoxicity; 24 h): 165 ± 17.2 µM
Cc1ccc(Nc2nc(-c3cc(C(=O)Nc4cccc(C)c4)no3)cs2)cc1  IC50 (Mycobacteroides abscessus; Bamboo; 72 h): > 100 µM
Cc1ccc(C(=O)N(C(=O)c2ccc(C)cc2)C(=S)N2N=C(c3ccc(C)cc3)CC2c2ccc(Cl)cc2)cc1 (stereo not drawn)  IC50 (Artemia; cytotoxicity; 24 h): 120 ± 12.2 µM
O=C(Nc1ccccn1)c1cc(-c2csc(Nc3ccccc3)n2)on1  IC50 (Mycobacteroides abscessus; Bamboo; 72 h): > 100 µM
COCCOc1ccc(-c2c[nH]c(N)n2)cc1  IC50 (Mycolicibacterium smegmatis; biofilm formation, crystal violet): > 50 µM
O=C(O)c1nc2ccccc2c(=O)n1Cc1cn(-c2ccccc2[N+](=O)[O-])nn1  IC50 (Candida tropicalis; microbial growth, broth dilution; ATCC750; 24 h): 521 µg/mL
Cc1ccc(-c2c[nH]c(N)n2)cc1  IC50 (Mycolicibacterium smegmatis; biofilm formation, crystal violet): 45 µM
CCOC(=O)c1nc2ccccc2c(=O)n1Cc1cn(-c2ccccc2[N+](=O)[O-])nn1  IC50 (Candida tropicalis; microbial growth, broth dilution; ATCC750; 24 h): 238 µg/mL
CS(=N)(=O)Cc1cccc(Nc2cc(NC3CC3)n3ncc(C#N)c3n2)c1 (stereo not drawn)  IC50 (murine hepatitis virus; viral replication; 10 h): 10 µM
CCOC(=O)c1nc2ccccc2c(=O)n1Cc1cn(-c2ccc([N+](=O)[O-])cc2)nn1  IC50 (Candida tropicalis; microbial growth, broth dilution; ATCC750; 24 h): 214 µg/mL
Nc1nc2c(ncn2COCCO)c(=O)[nH]1  IC50 (human alphaherpesvirus 1; viral GFP expression, live cell imaging; Vero, K26, GFP-expressing; peak infection time): 1.14 ± 0.2 µM
O=C(O)c1nc2ccccc2c(=O)n1Cc1cn(-c2ccc(F)cc2)nn1  IC50 (Candida tropicalis; microbial growth, broth dilution; ATCC750; 24 h): 231 µg/mL
Cc1ccc(Nc2nc(-c3cc(C(=O)Nc4ccccc4)no3)co2)cc1  IC50 (Mycobacteroides abscessus; Bamboo; 72 h): > 100 µM
OC(Cn1cncn1)(Cn1cncn1)c1ccc(F)cc1F  IC50 (Candida tropicalis; microbial growth, broth dilution; ATCC750; 24 h): 8.5 µg/mL
CC(=O)N[C@@H](CS)C(=O)O  IC50 (Leishmania tarentolae; cell viability, resazurin; promastigotes, compound alone): > 600 µM
